Assay results pooled from the literature.
Each numbered part is a random draw from the data of one study; scales do not carry over between parts. Positions count from the first letter of the parent shown.

Series 1
Target: Interferon regulatory factor 7, full length, phosphomimetic (IRF7, Homo sapiens, UniProt Q92985, residues 1-503, S101K/S471D/S472D/S475D/S476D/S477D/S483D/S484D/S487D)
Method: protein-binding microarray
Molecule type: double-stranded DNA, one strand shown
Medium: in vitro
Tested at: 250 nM
Setting: 60-bp whole probe
Added: salmon DNA 0.4 mg/ml
Relative to: random background probes
Reading: higher = stronger binding
Constant ends, left off below: GCCTAGCAC … GTCTTGATTCGCTTGACGCTGCTG
Residues (chain): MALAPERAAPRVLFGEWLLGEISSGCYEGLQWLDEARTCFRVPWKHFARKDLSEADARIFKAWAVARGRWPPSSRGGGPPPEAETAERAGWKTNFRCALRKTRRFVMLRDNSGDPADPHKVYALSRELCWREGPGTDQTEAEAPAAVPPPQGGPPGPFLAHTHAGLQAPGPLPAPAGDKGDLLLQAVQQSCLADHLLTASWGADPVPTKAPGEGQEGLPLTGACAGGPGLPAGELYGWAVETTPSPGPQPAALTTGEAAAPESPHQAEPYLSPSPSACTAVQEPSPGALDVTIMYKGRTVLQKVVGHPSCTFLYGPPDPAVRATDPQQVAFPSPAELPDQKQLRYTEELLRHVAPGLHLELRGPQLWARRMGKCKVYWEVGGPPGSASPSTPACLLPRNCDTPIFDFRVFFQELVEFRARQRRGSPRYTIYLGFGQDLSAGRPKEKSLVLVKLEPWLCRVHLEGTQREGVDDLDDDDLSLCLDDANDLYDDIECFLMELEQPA
| Sequence | log fluorescence |
| --- | --- |
| ATATATATTATATATACACATGTGCTA | 0.588 z-score |
| TTAGGTCTCGGTCTCGGTAAGTGCTAG | 1.9 z-score |
| GACGGTTCCGGTTCCGGGACGTGCTAG | 3.1 z-score |
| GACGATTTCTGTTTCGAGACGTGCTAG | 2.92 z-score |
| TTAGAACTTGGGTTTCGATTAGTGCTA | 6.66 z-score |
| TACGGTATCCTTTTCCTGACGTGCTAG | 1.43 z-score |
| GACGGACAGCTTTTCCTGACGTGCTAG | -0.459 z-score |
| TTAGATCTCAGTTTCGATTGGTGCTAG | 9.73 z-score |
| TTAGGTTTCGGACTGGGATAGTGCTAG | 3.85 z-score |
| GACGGTTTCGACAATCGGGACGTGCTA | 2.88 z-score |
| GATGGTATCGACTTTCGGGACGTGCTA | 1.53 z-score |
| TTAGGTATCTGGACTGGGTTAGTGCTA | -0.58 z-score |
| GACGATATCGTGTTTCGAGACGTGCTA | 0.877 z-score |
| TCAATTACCTCATCTTTCACTGTGCTA | 0.645 z-score |
| TTCAGTTTTCTTTTCCATTTGTGCTAG | 3.66 z-score |
| GACGAACTGCGTTTCGAGACGTGCTAG | 0.621 z-score |
| TCATTTTTTTTTTTCTGACTGTGCTAG | 0.713 z-score |
| TACTTTCTTTTTTTCTTTTAGTGCTAG | 4.46 z-score |
| GACGGTATAGGGTATCGGGACGTGCTA | -0.375 z-score |
| TCATATTCATATATATAACTGTGCTAG | 0.95 z-score |

Series 2
Target: Centromere-binding protein 1, full length, N-terminal tag (CBF1, Saccharomyces cerevisiae, UniProt P17106, residues 1-351)
UniProt P17106, sequence (whole entry, looked up): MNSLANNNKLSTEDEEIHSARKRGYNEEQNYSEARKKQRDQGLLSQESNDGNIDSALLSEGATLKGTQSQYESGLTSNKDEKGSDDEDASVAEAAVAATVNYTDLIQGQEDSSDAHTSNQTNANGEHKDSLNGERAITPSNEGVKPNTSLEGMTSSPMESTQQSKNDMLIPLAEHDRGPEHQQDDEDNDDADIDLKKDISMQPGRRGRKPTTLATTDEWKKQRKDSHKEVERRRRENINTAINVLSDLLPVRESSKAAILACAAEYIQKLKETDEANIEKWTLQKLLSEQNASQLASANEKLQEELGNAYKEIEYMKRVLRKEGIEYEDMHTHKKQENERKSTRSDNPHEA
Method: protein-binding microarray
Molecule type: double-stranded DNA, one strand shown
Medium: in vitro
Tested at: 0.8 µM
Setting: whole 60-bp probe, no competitor
Reading: higher = stronger binding
Constant ends, left off below: … GTCTTGATTCGCTTGACGCTGCTG
| Sequence | fluorescence intensity [a.u.] |
| --- | --- |
| CCTAACTACTATAAAATGGTGACATAGCTTCGTACA | 537 |
| GAATCGACCGTTTTAGCCGTGATCATTATCCTATAG | 646 |
| GAATTTAACACATTTCTCATGATCCTAATAGAATAG | 567 |
| CTATAAAGAAAAGGTCATCACTTTTTTTCGTACTTC | 534 |
| CTAGTAATCTCGAATCACATGGTACCTCTTTCTTTC | 2430 |
| GAACGCGGAGAATGCCACATGAGTTTGATGATTTAG | 575 |
| GAAACTGCCCACGAGCACATGGGGTGAGTTATATAG | 855 |
| GAAGGTCTGTCTGATCACATTTCCAAAGGCAATTAG | 641 |
| CTACCTTCGCCATAGTTCGTGATGAAAACTTTATTC | 575 |
| GAACAACTTCCATAGTACGTGCCTGCTACTGTGTAG | 533 |
| CTACAACAGCACCACCACCAATGCATTTTGGCCTTC | 495 |
| GAAATGAATGCGGCAGTGGTGATGAAGGAGATATAG | 548 |
| TGTACGAAGCTATCTCACGTGGTTATAGTAGTTAGG | 3640 |
| GAAAATTATCAATGCGACGTGATTTCTGGTTGCTAG | 607 |
| GAATTGATATTGTTTCACCTGTTCATCTTTAATTAG | 581 |
| CCTAACTACTATAGTTCCGTGAGATAGCTTCGTACA | 482 |
| CTACACAAAGCATGTCACGTCATGTAGCTGATCTTC | 785 |
| CTAAAGGGTCTTGGTGGTGTTGCAGTTGGACAATTC | 530 |

Series 3
Target: Histone acetyltransferase KAT6A, winged helix 2, GST fusion (KAT6A, Homo sapiens, UniProt Q92794, residues 85-181)
Method: protein binding microarray
Molecule type: double-stranded DNA, one strand shown
Medium: in vitro
Tested at: not given
Setting: 8-mer, flanks averaged, mean of 2 arrays, mostly near background
Relative to: not given
Reading: higher = stronger binding
Residues (chain): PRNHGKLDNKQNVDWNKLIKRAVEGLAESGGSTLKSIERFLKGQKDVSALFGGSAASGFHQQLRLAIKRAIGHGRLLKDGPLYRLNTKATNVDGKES
| Sequence | E-score |
| --- | --- |
| GCATAGCC | -0.123 |
| CCTCATCA | -0.106 |
| GTATTAAC | 0.0378 |
| GCTCTGAC | -0.0377 |
| ATTAAATG | -0.0177 |
| ACATCCCC | -0.0565 |
| AGTGCGCG | -0.0137 |
| CTGCGAGC | 0.146 |
| CAATTACG | -0.185 |
| GATACGCA | 0.127 |
| AATTTTGA | 0.216 |
| AGTTGCCA | 0.106 |
| AATTATAG | -0.115 |
| CGCATAAA | 0.061 |
| CGGTCCCA | 0.118 |
| AGCACCGC | 0.0757 |
| CACTCTCA | -0.077 |
| AATCTCGA | -0.0246 |
| CCTCCTAC | -0.111 |
| CGATTGAA | -0.0873 |
| AATAGTGG | -0.147 |
| AAGCCCTT | -0.175 |
| CCGCACGG | 0.18 |
| CTAAGCTA | -0.0121 |
| CCTGCAGA | 0.025 |

Series 4
Target: Ras GTPase-activating protein-binding protein 1, full length (G3BP1, Homo sapiens, UniProt Q13283)
UniProt Q13283, sequence (whole entry, looked up): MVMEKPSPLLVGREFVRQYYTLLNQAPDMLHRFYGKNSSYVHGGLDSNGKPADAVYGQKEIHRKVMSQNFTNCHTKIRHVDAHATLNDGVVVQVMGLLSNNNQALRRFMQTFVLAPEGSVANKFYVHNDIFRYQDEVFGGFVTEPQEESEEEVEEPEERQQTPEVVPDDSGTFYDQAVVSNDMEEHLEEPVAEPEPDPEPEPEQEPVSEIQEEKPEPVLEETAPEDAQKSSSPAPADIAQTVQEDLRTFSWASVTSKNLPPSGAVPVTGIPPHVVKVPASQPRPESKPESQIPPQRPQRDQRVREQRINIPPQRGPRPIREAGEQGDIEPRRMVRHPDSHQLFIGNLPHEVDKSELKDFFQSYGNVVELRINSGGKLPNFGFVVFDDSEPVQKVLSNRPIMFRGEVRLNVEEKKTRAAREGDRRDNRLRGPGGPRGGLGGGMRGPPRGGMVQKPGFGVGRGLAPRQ
Method: RNA Bind-n-Seq
Molecule type: RNA
Medium: in vitro
Tested at: 200 nM
Setting: whole 134-nt RNA, ends assumed
Added: 150 mM KCl
Relative to: input library
Reading: higher = stronger binding
Constant ends, left off below: GGGAGUUCUACAGUCCGACGAUC … UGGAAUUCUCGGGUGUCAAGG
| Sequence | log2 enrichment |
| --- | --- |
| GCAGGAAGUAAAAACAAAUGGAAAUGCUUCGGAUAGUGGCAGGGGUGGGGGUUGCUAAGGAAAGGGUGGGAUGGGAGUGGGCAAAGAGUU | 1.25 |
| UGCUCUCCGUGCCACAUGCGCCCGCAGGUUACGCCAAGGAGGCCCUGAAUCUGGCGCAGAUGCAGGAGCAGACGCUGCAGUUGGAGCAAC | -2.87 |
| GCAGAAAGUAAAAACAAAUGGAAAUGCUUCGGAUAGUGGCAGGGGUGGGGGUUGCUAAGGAAAGGGUGGGAUGGGAGUGGGUAAAGAGUU | 0.985 |
| CAAGUCCUGUGCUACACAUCGUAUGUACCGAAUCGGGUUUGGGUUUGGGGUUUGGAAAGUAUUAUGUUACGCCGUUCGGAUCUGCACUUC | -0.369 |
| UGCCCCUGGUGGCAUGCGGGGAGGAAGAGGUGGCCUCAUGGAUCGUGGUGGUCCCGGUGGAAUGUUCAGAGGUGGCCGUGGUGGAGACAG | 0.266 |
| GCAGGAAGUAAAAACAAAUGGAAAUGCUUCGGAUAGUGGCAGGGGUGGGGGUUGCUAAGGAAAUGGUGGGAUGGGAGUGGGUAAAGAGUU | 0.715 |
| UUGCUUCAAGAAGAUCCCUAAGCUGUAGAACAUUUUAACGUUGAUGCCACAACGCAGAUUGAUGCCUUGUAGAUGGAGCUUGCAGAUGGA | 0.507 |
| UCAAGUCCUGUGCUACACAUCGUAUGUACCGAAUCGGAAAAAGGUUUUUGGAGGAAAGUAUUAUGUUACGCCGUUCGGAUCUGCACUUCC | -1.02 |
| UGCUGUUCAGGUGGUGGAGAAGAAGAUGGAACCCCAGGCUGCCUGGCUACAGAGCCUGGAGGGAUGCAUGUGGACAGCCAAGAAGAAGCU | -1.66 |
| CCUCAAGUCCUGUGCUACACAUCGUAUGUACCGAAUCGGGGCGGGCGGCGGGGAAAGUAUUAUGUUACGCCGUUCGGAUCUGCACUUCCA | 0.878 |
| AAGUCCUGUGCUACACAUCGUAUGUACCGAAUCGGUUUUGGGGUUUUGGUUUUGGGAAAGUAUUAUGUUACGCCGUUCGGAUCUGCACUU | -1.1 |
| UGGCCCUGGUGGCAUGCGGGGAGGAAGAGGUGGCCUCAUGGAUCGAGGUGGUCCCGGUGGAAUGUUCAGAGGUGGCCGUGGUGGAGACAG | 0.221 |
| CUGUGCUACACAUCGUAUGUACCGAAUCGGGGUUUUUUUGGUUUUUUUGGUUUUUUUGGGGAAAGUAUUAUGUUACGCCGUUCGGAUCUG | -1.01 |
| UUGGAUGAAGAUGGCAAAGUCCUGACCCCGGAGGAGCUGCUCUACCGGGUAAGGGGGCCUCCUCUGCCAGACCCUAGAGACCUCUCUGGG | -0.95 |

Series 5
Target: CCNE2, cyclin fold, Cln2 fusion (human)
Method: yeast growth competition, sequencing
Medium: yeast
Setting: strong parent motif
Relative to: not given
Reading: higher = stronger binding
Starting sequence: TICRR docking peptide (human); TKVRRNLFNQELL; partner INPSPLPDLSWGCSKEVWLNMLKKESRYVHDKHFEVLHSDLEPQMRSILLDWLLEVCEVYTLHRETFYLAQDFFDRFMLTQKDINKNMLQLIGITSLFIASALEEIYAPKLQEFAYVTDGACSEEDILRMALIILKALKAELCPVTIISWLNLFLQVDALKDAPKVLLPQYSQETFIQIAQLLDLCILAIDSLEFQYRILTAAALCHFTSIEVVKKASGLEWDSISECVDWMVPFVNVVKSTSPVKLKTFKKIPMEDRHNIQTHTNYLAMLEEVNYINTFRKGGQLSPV
| Variant | normalised enrichment score |
| --- | --- |
| TKVRRNLFNQELA [L13A] | 2.06 |
| TKVRRNLFAQELL [N9A] | 1.35 |
| TAVRRNLFNQELL [K2A] | 2.81 |
| TKVRKNLFNQELL [R5K] | 0.944 |
| TKVRANLFNQELL [R5A] | 0.517 |
| TKVRRNLFNQALL [E11A] | 1.95 |
| TKVRRNAFNQELL [L7A] | -0.186 |

A few entries again (series 1):
| Sequence | log fluorescence |
| --- | --- |
| GACGGTTCCGGTTCCGGGACGTGCTAG | 3.1 z-score |
| GACGATTTCTGTTTCGAGACGTGCTAG | 2.92 z-score |
| TTAGAACTTGGGTTTCGATTAGTGCTA | 6.66 z-score |
| TACGGTATCCTTTTCCTGACGTGCTAG | 1.43 z-score |
| GACGGACAGCTTTTCCTGACGTGCTAG | -0.459 z-score |
| TTAGATCTCAGTTTCGATTGGTGCTAG | 9.73 z-score |
| TTAGGTTTCGGACTGGGATAGTGCTAG | 3.85 z-score |
| GACGGTTTCGACAATCGGGACGTGCTA | 2.88 z-score |
